Assay results from different studies.
pKi: −log10 of the molar value.
Target: Cannabinoid receptor 1 (CNR1, Homo sapiens, UniProt P21554)
Chain of UniProt P21554 (whole entry, looked up): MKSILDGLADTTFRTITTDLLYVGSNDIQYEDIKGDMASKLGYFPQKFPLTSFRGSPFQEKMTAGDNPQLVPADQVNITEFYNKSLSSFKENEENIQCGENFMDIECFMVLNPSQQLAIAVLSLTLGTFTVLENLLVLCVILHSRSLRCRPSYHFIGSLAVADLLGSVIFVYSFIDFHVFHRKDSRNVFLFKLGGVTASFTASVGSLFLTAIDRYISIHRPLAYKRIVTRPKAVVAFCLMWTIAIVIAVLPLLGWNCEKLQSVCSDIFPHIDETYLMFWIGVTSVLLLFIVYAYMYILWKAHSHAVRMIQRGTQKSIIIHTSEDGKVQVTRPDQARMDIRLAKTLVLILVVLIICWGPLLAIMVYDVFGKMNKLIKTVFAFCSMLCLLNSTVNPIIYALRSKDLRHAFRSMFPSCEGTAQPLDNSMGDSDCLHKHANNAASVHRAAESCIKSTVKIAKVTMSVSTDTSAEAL
Method: radioligand

CCOC(=O)[C@](CC)(CCCSCCOCCOCCNc1ccc([N+](=O)[O-])c2nonc12)NC(=O)c1ccc(C2CC2)c(Cc2ccc(F)cc2)n1
pKi (ligand displacement; cell membranes): 6.21

CCCCCc1cc(OC(=O)C(NC(=O)CCC(=O)O)C(C)C)c2c(c1)OC(C)(C)C1CCC(C)=CC21 (stereo not drawn)
pKi (ligand displacement): 6.02

CCCCCn1cc(C(=O)Cc2ccccc2OC)c2ccccc21
pKi (ligand displacement; cell membranes): 6.96

CCOC(=O)C(CC)(CC)NC(=O)c1ccc(C2CC2)c(Cc2ccc(F)cc2)n1
pKi (ligand displacement; cell membranes): 8.38

O=C(c1ccccc1I)c1cn(CCCCCF)c2ccccc12
pKi (ligand displacement in cells): 7.83

CCCCCn1cc(C(=O)c2ccc(OC)cc2)c2ccccc21
pKi (ligand displacement; cell membranes): 5.14

CC(=O)OCCCCCn1c2ccccc2c2cc(C(=O)c3cccc4ccccc34)ccc21
pKi (ligand displacement; cell membranes): 6.75

O=C(c1cccnc1)c1cn(CCCCCF)c2ccccc12
pKi (ligand displacement in cells): 8.06

O=C(c1ccc2c(c1)c1ccccc1n2CCN1CCCCC1)c1cccc2ccccc12
pKi (ligand displacement; cell membranes): 7.55

CC1=C[C@H]2c3c(O)cc(CCc4ccccc4)cc3OC(C)(C)[C@@H]2CC1
pKi (ligand displacement; cell membranes): 6.90

O=C(NC12CC3CC(CC(C3)C1)C2)c1cn(CCCCCF)c2ccccc12
pKi (ligand displacement in cells): 7.35

CCCCCCn1c2ccccc2c2cc(C(=O)c3cccc4ccccc34)ccc21
pKi (ligand displacement; cell membranes): 7.16

Some of these lines once more:
O=C(c1cccnc1)c1cn(CCCCCF)c2ccccc12
pKi (ligand displacement in cells): 8.06
